Experimental data pooled from the literature.
Parts stem from different laboratories: compare values within a part only.

Series 1
Target: CDC34 UBC core domain (UniProt P49427)
Chain of UniProt P49427 (whole entry, looked up): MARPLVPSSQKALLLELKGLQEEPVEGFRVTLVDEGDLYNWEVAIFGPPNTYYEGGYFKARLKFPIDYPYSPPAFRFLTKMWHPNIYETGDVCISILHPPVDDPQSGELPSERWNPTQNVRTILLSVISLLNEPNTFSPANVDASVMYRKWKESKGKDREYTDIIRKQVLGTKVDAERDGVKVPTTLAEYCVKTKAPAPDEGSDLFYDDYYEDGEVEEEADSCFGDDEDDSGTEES
Technique: yeast two-hybrid
Medium: yeast
Setting: mostly zero background
Baseline: not given
Reading: higher = stronger interaction
B1: RNF32 RING domain (UniProt Q9H0A6); chain VQALRRETHECSICLAPLSAAGGQRVGAGRRSREMALLSCSHVFHHACLLALEEFSVGDRPPFHACPLCRSCYQKKILEC
B2: ARIH1 RING domain (UniProt Q9Y4X5); chain NTRSSAQDMPCQICYLNYPNSYFTGLECGHKFCMQCWSEYLTTKIMEEGMGQTISCPAHGCDILVDDNTVM
B3: RNF115 RING domain (UniProt Q9Y4L5); chain TQEQVDMGLECPVCKEDYTVEEEVRQLPCNHFFHSSCIVPWLELHDTCPVCRKSLNGEDSTR
Sequence | lacZ reporter activity
B1 (RNF32 RING domain) | 0
AAQLLEEKLTCAICLGLYQDPVTLPCGHNFCGACIRDWWDRCGKACPECREPFPDGAELR (TRIM65 RING domain (UniProt Q6PJ69)) | 0
B2 (ARIH1 RING domain) | 0
B3 (RNF115 RING domain) | 0
GSEEEEIPFRCFICRQAFQNPVVTKCRHYFCESCALEHFRATPRCYICDQPTGGIFNPA (RNF113B RING domain (UniProt Q8IZP6)) | 0
EDVLSKDAGECAICLEELQQGDTIARLPCLCIYHKGCIDEWFEVNRSCPEHPSD (ZNRF2 RING domain (UniProt Q8NHG8)) | 0
PLRRLQEEKLCKICMDRHIAVVFIPCGHLVTCKQCAEAVDRCPMCSAVIDFKQRVF (BIRC8 RING domain (UniProt Q96P09)) | 0

Series 2
Target: Sal-like protein 4, full length isoform A (SALL4, Homo sapiens, UniProt Q9UJQ4, residues 1-1053)
Chain of UniProt Q9UJQ4 (whole entry, looked up): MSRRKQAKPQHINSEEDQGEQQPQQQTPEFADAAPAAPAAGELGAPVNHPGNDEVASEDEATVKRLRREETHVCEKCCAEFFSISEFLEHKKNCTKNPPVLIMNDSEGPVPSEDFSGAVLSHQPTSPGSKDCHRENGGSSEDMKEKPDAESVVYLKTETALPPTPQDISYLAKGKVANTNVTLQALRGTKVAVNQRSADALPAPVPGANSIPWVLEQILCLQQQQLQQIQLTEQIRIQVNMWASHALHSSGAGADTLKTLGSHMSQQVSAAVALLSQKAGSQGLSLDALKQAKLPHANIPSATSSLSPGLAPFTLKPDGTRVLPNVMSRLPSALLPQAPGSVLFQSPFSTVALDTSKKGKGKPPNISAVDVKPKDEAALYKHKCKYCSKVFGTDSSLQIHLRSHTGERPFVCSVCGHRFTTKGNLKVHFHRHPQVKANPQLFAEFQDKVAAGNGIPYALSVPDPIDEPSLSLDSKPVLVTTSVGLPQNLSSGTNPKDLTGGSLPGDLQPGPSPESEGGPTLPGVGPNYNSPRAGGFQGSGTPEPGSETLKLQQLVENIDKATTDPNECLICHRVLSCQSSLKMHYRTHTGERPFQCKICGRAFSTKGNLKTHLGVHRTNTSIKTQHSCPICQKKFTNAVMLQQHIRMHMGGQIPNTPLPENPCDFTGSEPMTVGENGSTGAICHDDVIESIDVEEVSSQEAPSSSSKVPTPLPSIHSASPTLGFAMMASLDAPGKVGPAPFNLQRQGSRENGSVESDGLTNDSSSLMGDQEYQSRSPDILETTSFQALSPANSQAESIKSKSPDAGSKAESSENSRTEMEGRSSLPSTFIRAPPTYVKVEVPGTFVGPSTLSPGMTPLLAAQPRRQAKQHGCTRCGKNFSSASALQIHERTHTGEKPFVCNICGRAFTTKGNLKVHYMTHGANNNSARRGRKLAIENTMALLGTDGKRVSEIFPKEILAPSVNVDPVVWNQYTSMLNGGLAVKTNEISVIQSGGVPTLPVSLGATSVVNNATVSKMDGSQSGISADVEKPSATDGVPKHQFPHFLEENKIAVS
Technique: universal PBM
Molecule type: double-stranded DNA, one strand shown
Medium: in vitro
Tested at: 600 nM
Setting: 8-mer, flanks averaged, mean of replicates
Reading: higher = stronger binding
Oligonucleotide | E-score
AGGCATAA | 0.219
CGCCAGGC | -0.382
AATGGGGG | -0.226
CCTCCGAC | -0.266
GAAGCATC | -0.0292
CACACACG | -0.239
CATATCAA | 0.354
GTGCATAA | 0.238
GTCGTAGA | 0.00911
GAAGCTAA | 0.0179
GCCTCCAA | -0.091
GAAGAGAC | 0.0192
TACGTCGA | -0.0347
CCATGCCG | -0.177
GACGTGTA | -0.0327

Series 3
Target: Histone acetyltransferase KAT6A, winged helix 2, GST fusion (KAT6A, Homo sapiens, UniProt Q92794, residues 85-181)
Technique: protein binding microarray
Molecule type: double-stranded DNA, one strand shown
Medium: in vitro
Tested at: not given
Setting: 8-mer, flanks averaged, mean of 2 arrays, mostly near background
Baseline: not given
Reading: higher = stronger binding
Construct (chain): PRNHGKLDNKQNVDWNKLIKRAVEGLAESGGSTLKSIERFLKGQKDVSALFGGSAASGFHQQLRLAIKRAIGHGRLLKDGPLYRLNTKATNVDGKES
Oligonucleotide | E-score
ATGATTCC | 0.0728
ATATCCTA | -0.103
GAATCCCC | -0.0453
CTACTCGC | -0.101
AGGCCATA | -0.0389
TCGGAACA | 0.0142
ACATCTAA | -0.0971
AAATAAAG | 0.0277
ATTTTTCG | 0.11
CCCGATCC | 0.0346
ACCATACG | -0.161
ATACGCCC | -0.00214
CTGGTCTC | -0.0763
ACACTTGC | -0.0438
GATACTAC | 0.0332
GACTCCCA | -0.168
ATTACTGA | -0.0903
GACTATCA | -0.162
ACCTAAGG | -0.0816
CCCGACAG | 0.113
ATTAACGC | -0.153

Series 4
Target: Interferon regulatory factor 7, full length, phosphomimetic (IRF7, Homo sapiens, UniProt Q92985, residues 1-503, S471D/S472D/S475D/S476D/S477D/S483D/S484D/S487D)
Technique: protein-binding microarray
Molecule type: double-stranded DNA, one strand shown
Medium: in vitro
Tested at: 2200 nM top
Setting: 60-bp whole probe
With: salmon DNA 0.4 mg/ml
Baseline: random background probes
Reading: higher = stronger binding
Constant ends, left off below: GCCTAGCAC … GTCTTGATTCGCTTGACGCTGCTG
Residues (chain): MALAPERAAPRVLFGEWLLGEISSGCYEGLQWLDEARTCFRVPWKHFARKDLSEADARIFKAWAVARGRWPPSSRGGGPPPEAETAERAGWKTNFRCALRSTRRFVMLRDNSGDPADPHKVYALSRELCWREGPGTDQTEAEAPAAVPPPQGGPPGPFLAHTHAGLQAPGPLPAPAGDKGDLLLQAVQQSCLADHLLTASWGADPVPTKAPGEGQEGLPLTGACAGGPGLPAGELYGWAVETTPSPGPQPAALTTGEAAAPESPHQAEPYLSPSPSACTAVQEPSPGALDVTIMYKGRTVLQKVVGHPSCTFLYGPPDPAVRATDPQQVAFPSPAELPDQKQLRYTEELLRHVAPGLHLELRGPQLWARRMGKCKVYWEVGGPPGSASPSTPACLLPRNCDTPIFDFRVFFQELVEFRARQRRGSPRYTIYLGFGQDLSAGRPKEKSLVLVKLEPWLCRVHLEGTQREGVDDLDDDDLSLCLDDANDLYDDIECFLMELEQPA
Oligonucleotide | fitted relative affinity [z-score]
GACGGACTGCTACTGCGGACGTGCTAG | -0.498
AGGAATTTCCCACTTTCACTGTGCTAG | 3.12
TTAGGTTTCGGTTTCGGTTGGTGCTAG | 17.7
GTCGGACTGGGTATCGGGACGTGCTAG | -0.726
GTCATTTTCTCTTATTCTAAGTGCTAG | 2.79
GACGGACTGGCCTATCGGGACGTGCTA | -0.852
GACGATATCAGTAACGAGACGTGCTAG | 0.0804
TCACAACTCGCCTTTTTTACTGTGCTA | 1.28
GACGGACTGGGGACTGGTGACGTGCTA | -0.754
GACCATCTCAGTATCGAGACGTGCTAG | 0.374
GTTTGTGTGTGTATGTGGTCGTGCTAG | 1.21
TCACATACTAATTTCCAACTGTGCTAG | 1.28
TTAGATCTCCGTTTCGATTAGTGCTAG | 3.24
GACGATTTCAGTTCCGAGAAGTGCTAG | 1.38
GACGGTTTCCTTATCCGGACGTGCTAG | 2.72
TCATATGTAATCATTCACACTGTGCTA | 0.785
GACGGTTTCGACTTCCGGGACGTGCTA | 8.17
GACGAACTCAGTTTCGAGACGTGCTAG | 3.34
AACGGACTGGACTATCGGGACGTGCTA | -0.786

Series 5
Substance: HSPD1 (Homo sapiens, UniProt P10809)
Technique: cross-linking MS
Medium: cells
With: BSPNO
partner | cross-linked residues
IKBKE (Homo sapiens, UniProt Q14164) | K292 to K677
MDH2 (Homo sapiens, UniProt P40926) | K133 to K157
KIF20B (Homo sapiens, UniProt Q96Q89) | K58 to K1326
TST (Homo sapiens, UniProt Q16762) | K196 to V2

Series 6
Target: Centromere-binding protein 1, full length, N-terminal tag (CBF1, Saccharomyces cerevisiae, UniProt P17106, residues 1-351)
Chain of UniProt P17106 (whole entry, looked up): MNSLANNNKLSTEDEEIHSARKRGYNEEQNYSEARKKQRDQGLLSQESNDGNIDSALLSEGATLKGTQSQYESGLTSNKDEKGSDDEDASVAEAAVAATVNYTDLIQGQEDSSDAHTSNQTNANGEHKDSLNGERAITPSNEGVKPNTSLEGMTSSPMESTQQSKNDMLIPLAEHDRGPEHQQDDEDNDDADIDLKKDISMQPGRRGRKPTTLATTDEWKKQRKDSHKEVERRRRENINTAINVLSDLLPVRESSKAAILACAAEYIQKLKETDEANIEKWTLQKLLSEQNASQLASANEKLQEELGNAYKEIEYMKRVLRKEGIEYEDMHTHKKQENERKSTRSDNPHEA
Technique: protein-binding microarray
Molecule type: double-stranded DNA, one strand shown
Medium: in vitro
Tested at: 0.8 µM
Setting: whole 60-bp probe, no competitor
Reading: higher = stronger binding
Oligonucleotide | fluorescence intensity [a.u.]
GAAAGTTTATTATTCAACGTGTCCAATTTTCACTAGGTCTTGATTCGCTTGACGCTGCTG | 573
TGTACGAAGCTATGTTACGTGTATATAGTAGTTAGGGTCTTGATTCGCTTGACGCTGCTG | 532
GAACTTTTTCCTTAGCGTGCGTTTATGAAAAAATAGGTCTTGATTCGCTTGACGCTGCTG | 598
CTATAATTGATTGGGCACCACGTAAATTCTTGATTCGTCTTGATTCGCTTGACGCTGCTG | 502
CCTAACTACTATAGCGGTCAGATATAGCTTCGTACAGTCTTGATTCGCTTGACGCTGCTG | 507
GAATTAAATTATGACCCCGTGGTGTTTGGGTTATAGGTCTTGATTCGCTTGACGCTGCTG | 1190
CCTAACTACTATAATCTGATGCTATAGCTTCGTACAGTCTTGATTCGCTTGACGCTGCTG | 505
GAAGGGCCCCTTAAACACGTTTCATTAGTGTTTTAGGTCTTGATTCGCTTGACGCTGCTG | 528
GAAATGAGAAGAACCCACGAAGAGATCGATATTTAGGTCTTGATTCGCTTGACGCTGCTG | 484
CTACCATATTAATAAGACCTGATGCGATTCCGGTTCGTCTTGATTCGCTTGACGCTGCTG | 490
CTAGTTTCAGCAGCTCTGATGTAGATACACGTATTCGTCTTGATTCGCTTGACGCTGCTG | 518
GAAAATCACATTTCAAATATATCACGTGTTATATAGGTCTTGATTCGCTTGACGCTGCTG | 17400
GAAAATGGATTACGCAACATCAGCTTTTTAATTTAGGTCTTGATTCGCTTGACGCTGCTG | 543

Further values, each from its own experiment
Sequence | organism | test | system | conditions | how to read | endpoint | value
GSPLAKAFTSTGL | Saccharomyces cerevisiae | peptide binding, yeast competitive growth sequencing | peptide, cyclin F-Cln2 fusion | concentration not given, library 1, Cln2-subtracted | direction not given | binding score | -0.465

A few entries again (series 6):
Oligonucleotide | fluorescence intensity [a.u.]
CCTAACTACTATAGCGGTCAGATATAGCTTCGTACAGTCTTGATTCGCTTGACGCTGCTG | 507
TGTACGAAGCTATGTTACGTGTATATAGTAGTTAGGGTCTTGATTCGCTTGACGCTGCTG | 532
GAAATGAGAAGAACCCACGAAGAGATCGATATTTAGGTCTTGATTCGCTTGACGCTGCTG | 484
GAAAATCACATTTCAAATATATCACGTGTTATATAGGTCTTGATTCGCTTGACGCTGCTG | 17400
GAAAATGGATTACGCAACATCAGCTTTTTAATTTAGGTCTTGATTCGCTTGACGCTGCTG | 543
GAACTTTTTCCTTAGCGTGCGTTTATGAAAAAATAGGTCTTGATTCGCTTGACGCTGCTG | 598
CTACCATATTAATAAGACCTGATGCGATTCCGGTTCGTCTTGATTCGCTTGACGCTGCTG | 490
GAAGGGCCCCTTAAACACGTTTCATTAGTGTTTTAGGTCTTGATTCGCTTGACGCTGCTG | 528
CCTAACTACTATAATCTGATGCTATAGCTTCGTACAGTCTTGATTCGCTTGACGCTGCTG | 505
